Published values pooled from the literature.
Each line is one published result; not all experiments were run side by side. “And” joins repeats or separate records; there may be more than shown. ± marks the error that the study gave.
MAPK8: Mitogen-activated protein kinase 8 (MAPK8, Homo sapiens, UniProt P45983)
UniProt P46089, sequence (whole entry, looked up): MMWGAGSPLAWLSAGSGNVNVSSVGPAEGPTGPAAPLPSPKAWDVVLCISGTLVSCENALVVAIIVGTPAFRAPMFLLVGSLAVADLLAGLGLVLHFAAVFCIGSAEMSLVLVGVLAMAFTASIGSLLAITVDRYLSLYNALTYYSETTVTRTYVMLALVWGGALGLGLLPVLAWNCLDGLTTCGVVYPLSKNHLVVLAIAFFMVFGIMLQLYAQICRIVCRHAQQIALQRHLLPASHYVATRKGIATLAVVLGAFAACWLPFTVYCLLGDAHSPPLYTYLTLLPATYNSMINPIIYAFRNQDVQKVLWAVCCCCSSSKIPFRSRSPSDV
UniProt P45983, sequence (whole entry, looked up): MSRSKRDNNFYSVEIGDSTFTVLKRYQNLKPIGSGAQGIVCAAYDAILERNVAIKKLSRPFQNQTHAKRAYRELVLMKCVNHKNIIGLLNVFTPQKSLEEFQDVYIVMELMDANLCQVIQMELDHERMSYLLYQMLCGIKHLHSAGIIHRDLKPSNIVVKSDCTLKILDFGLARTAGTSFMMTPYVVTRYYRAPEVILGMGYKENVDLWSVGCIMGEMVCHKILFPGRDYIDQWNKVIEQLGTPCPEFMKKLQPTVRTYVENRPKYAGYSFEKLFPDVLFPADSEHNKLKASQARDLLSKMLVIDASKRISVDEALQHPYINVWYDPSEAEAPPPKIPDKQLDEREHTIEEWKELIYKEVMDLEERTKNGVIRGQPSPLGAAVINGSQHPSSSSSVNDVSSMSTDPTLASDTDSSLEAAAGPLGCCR
UniProt P08546, sequence (whole entry, looked up): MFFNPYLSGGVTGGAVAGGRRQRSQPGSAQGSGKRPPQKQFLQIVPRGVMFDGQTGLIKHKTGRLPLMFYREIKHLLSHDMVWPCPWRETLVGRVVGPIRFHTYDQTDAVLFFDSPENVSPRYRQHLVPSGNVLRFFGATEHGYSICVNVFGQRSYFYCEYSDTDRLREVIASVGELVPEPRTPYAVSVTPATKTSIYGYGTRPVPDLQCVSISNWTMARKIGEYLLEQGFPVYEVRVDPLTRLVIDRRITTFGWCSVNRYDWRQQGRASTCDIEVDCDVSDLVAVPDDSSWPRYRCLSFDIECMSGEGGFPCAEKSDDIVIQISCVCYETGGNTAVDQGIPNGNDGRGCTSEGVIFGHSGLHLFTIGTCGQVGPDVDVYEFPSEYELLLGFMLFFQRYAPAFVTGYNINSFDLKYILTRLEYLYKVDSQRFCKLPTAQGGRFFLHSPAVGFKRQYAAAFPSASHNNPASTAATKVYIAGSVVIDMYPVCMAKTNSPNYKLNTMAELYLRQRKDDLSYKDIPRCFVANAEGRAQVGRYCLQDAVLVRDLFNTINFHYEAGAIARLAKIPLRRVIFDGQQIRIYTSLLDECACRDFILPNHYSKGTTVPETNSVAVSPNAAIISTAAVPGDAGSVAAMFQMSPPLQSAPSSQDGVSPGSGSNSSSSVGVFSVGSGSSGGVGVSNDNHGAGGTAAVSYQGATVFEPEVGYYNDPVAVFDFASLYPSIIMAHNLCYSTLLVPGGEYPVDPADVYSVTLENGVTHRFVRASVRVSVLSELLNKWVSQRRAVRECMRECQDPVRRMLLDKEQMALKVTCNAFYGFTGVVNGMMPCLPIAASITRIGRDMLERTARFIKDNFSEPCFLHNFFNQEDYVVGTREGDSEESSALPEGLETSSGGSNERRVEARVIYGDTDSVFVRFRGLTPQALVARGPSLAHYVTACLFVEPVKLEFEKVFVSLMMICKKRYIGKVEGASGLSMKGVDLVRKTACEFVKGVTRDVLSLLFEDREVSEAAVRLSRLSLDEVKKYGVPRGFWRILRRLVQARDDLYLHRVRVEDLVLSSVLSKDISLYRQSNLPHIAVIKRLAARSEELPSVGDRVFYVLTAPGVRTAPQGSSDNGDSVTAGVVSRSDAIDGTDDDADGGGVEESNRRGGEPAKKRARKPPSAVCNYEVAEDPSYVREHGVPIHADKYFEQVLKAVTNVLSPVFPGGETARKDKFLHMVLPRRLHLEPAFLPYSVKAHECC
UniProt Q15910, sequence (whole entry, looked up): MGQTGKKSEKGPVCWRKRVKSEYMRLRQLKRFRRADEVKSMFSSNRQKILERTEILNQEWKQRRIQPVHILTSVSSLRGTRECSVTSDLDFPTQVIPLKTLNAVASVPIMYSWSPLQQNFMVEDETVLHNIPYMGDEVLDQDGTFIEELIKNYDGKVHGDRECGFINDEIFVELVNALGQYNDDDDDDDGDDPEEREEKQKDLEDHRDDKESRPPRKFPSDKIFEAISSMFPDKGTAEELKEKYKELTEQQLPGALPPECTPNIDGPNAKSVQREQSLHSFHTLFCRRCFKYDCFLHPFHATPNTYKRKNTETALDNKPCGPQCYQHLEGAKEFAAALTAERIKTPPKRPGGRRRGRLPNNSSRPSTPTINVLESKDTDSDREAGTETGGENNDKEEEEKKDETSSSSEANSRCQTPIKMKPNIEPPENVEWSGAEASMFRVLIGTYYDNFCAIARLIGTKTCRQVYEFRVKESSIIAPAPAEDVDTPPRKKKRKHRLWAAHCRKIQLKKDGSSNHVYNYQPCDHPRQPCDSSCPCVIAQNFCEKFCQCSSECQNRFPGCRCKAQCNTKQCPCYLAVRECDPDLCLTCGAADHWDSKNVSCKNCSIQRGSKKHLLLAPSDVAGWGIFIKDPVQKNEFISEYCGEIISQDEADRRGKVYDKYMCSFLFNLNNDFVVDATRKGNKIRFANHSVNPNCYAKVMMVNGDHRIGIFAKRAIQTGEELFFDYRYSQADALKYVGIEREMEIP
UniProt O75385, sequence (whole entry, looked up): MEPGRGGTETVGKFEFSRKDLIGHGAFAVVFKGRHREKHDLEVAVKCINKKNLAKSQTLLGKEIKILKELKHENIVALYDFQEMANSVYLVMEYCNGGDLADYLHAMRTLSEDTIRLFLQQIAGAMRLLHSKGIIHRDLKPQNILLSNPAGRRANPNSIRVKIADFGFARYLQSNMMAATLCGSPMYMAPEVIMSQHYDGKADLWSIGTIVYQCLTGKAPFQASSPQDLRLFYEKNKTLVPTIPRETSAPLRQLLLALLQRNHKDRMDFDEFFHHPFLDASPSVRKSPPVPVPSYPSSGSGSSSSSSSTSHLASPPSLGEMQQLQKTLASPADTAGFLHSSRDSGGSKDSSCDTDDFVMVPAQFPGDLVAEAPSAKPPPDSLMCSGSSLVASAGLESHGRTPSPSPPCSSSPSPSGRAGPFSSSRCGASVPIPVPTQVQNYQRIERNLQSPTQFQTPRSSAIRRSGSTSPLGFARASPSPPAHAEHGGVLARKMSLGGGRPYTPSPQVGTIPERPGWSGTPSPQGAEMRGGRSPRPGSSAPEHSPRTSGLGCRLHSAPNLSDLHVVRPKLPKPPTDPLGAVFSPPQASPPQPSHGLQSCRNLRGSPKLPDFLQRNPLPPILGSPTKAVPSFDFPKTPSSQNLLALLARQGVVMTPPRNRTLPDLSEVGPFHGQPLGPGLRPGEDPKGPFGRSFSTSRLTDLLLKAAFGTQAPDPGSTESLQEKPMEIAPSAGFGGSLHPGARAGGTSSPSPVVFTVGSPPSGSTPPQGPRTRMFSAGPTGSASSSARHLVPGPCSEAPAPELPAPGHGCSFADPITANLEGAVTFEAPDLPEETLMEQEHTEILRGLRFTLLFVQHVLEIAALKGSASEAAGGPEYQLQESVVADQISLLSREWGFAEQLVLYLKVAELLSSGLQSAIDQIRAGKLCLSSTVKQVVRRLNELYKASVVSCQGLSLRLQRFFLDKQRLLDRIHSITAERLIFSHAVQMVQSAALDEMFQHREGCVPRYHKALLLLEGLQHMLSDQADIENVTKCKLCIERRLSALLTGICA
UniProt P02754, sequence (whole entry, unmodified, looked up): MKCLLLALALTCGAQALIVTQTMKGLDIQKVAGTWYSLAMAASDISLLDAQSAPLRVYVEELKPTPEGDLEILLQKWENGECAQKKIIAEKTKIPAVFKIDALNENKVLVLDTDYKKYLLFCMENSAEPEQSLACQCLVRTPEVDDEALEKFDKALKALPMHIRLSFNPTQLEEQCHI
UniProt Q9HB29, sequence (whole entry, looked up): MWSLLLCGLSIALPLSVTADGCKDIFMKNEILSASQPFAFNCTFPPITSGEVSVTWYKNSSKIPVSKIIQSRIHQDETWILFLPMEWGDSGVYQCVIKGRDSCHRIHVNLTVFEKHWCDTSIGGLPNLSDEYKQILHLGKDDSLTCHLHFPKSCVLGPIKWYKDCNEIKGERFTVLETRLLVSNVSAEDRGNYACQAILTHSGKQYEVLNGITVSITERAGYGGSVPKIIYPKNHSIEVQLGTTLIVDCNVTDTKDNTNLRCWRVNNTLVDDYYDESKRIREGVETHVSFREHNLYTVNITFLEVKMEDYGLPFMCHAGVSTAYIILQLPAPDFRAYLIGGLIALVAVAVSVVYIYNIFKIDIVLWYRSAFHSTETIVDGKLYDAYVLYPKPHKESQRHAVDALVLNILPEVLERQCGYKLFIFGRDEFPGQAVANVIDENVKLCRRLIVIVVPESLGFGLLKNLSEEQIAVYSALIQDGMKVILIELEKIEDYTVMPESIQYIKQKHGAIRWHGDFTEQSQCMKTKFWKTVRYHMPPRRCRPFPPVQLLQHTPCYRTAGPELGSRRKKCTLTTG
UniProt Q9UKP6, sequence (whole entry, looked up): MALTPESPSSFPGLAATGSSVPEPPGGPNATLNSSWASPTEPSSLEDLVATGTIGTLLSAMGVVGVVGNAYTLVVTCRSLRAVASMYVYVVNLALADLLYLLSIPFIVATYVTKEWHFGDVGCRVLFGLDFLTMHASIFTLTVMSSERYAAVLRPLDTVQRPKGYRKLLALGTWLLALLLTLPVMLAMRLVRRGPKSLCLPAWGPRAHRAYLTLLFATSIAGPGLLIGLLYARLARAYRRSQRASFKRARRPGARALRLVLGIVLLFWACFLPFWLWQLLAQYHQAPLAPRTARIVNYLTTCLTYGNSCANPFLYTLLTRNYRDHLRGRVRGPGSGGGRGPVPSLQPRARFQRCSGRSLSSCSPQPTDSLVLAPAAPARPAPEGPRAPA

| SMILES | target | assay | test system | conditions | scale | quantity | result |
| --- | --- | --- | --- | --- | --- | --- | --- |
| CN(C)c1ccc(C#CCOC(=O)[C@]2(C)C=C(C(=O)OC(C)(C)C)C(=O)CC2)cc1 | MAPK8 | D-peptide binding, inhibitor, FP peptide displacement |  | 250 µM | lower is stronger displacement | fraction bound | 0.295 |
| O=C(O)[C@H]1O[C@@H](O[C@H]2[C@H](O)[C@H](O)[C@H](O[C@H]3[C@H](O)[C@H](O)[C@H](O)O[C@@H]3C(=O)O)O[C@H]2C(=O)O)[C@@H](O)[C@@H](O)[C@@H]1O[C@@H]1O[C@@H](C(=O)O)[C@@H](O)[C@H](O)[C@@H]1O | Beta-lactoglobulin (LGB, Bos taurus, UniProt P02754, A134V/G80D) | isothermal titration calorimetry |  | concentration not given, pH 2.65, 37 °C, 50 mM KH2PO4 | ligand per protein | binding stoichiometry | 5.1 |
| COc1cc(C2C(NC(=O)c3ccc(NC(=O)OC(C)(C)C)cc3)(C(=O)O)C(c3ccc(OC(=O)c4cccs4)c(OC)c3)C2(NC(=O)c2ccc(NC(=O)OC(C)(C)C)cc2)C(=O)O)ccc1OC(=O)c1cccs1 (stereo not shown) | Glucagon-like peptide 1 receptor (GLP1R, Homo sapiens, UniProt P43220, Y145A) | cAMP accumulation, agonist |  | receptor mutant | relative to: wild type | Emax | 93.8 ± 4.12% |
| CCCCCCCCCCCCC/C=C/C=O | Ribonucleoside-diphosphate reductase large subunit (Homo sapiens, UniProt P23921) | competitive isoTOP-ABPP, refers to: RRM1 cysteine peptide | Ramos soluble proteome | 100 µM, added: iodoacetamide probe | relative to: DMSO over compound-treated, higher = stronger cysteine blockade | isoTOP-ABPP competition ratio | 1 |
| CC(C)Oc1cc(Cl)ccc1CNc1cc(-c2ccccc2)nc2ncnn12 | G-protein coupled receptor 3 (GPR3, Homo sapiens, UniProt P46089) | cAMP reporter | human cells | 100 µM | higher is more cAMP | cAMP luminescence | 795 a.u. and 691 a.u. and 656 a.u. and 2590 a.u. and 1920 a.u. and 1040 a.u. |
| C=C1CC2(C(=O)OC)C=C(C(=O)OC(C)(C)C)C(=O)C1C2 (stereo not shown) | MAPK8 | D-peptide binding, inhibitor, FP peptide displacement |  | 31.25 µM | lower is stronger displacement | fraction bound | 0.686 |
| CC(C)[C@@H]1NC(=O)[C@H](Cc2ccccc2)NC(=O)CSC[C@@H](C(N)=O)NC(=O)[C@H](CCC(=O)O)NC(=O)[C@H](CO)NC(=O)[C@H](Cc2c[nH]c3cccc(Cl)c23)NC(=O)[C@H](C2CCCCC2)NC(=O)[C@H](C(C)C)NC(=O)[C@H](Cc2ccc(O)cc2)NC(=O)[C@H](CC(=O)O)NC(=O)[C@H](Cc2c[nH]c3ccccc23)NC(=O)[C@H](Cc2ccc(N)nc2)NC(=O)[C@H](Cc2c[nH]c3ccc(Cl)cc23)NC(=O)[C@H](CCC(=O)O)NC1=O | Interleukin-1 receptor-like 2 (IL1RL2, Homo sapiens, UniProt Q9HB29) | reporter gene | HEK-Blue IL-36R | 33.33 µM, 6 h, added: IL-36γ 0.3 ng/mL | relative to: control | remaining activity | 0.4% |
| O=C(c1ccccc1)N1CCN(CC(OCc2ccc3ccccc3c2)c2ccc(Cl)cc2Cl)CC1 (stereo not shown) | Serine/threonine-protein kinase ULK1 (ULK1, Homo sapiens, UniProt O75385) | enzyme activity, inhibitor, ADP detection |  | 0.1 µM |  | activity vs control | 106% |
| CC1(C)CN(C(=O)Cn2c(=O)c(C(=O)NCc3ccc(Cl)cc3)cc3cccnc32)C1 | DNA polymerase catalytic subunit (Human cytomegalovirus, UniProt P08546) | enzyme activity, inhibitor |  |  |  | Hill slope | 0.7 |
| C=CC(=O)N1C[C@H](C)N(c2nc(OC[C@@]34CCCN3C[C@H](F)C4)nc3c(F)c(-c4ccc(F)c5sc(N)c(C#N)c45)c(C(F)(F)F)cc23)C[C@H]1C | GTPase KRas, GppNHp-bound (KRAS, Homo sapiens, UniProt P01116, G12D) | binding |  |  |  | dissociation rate constant | 0.221 ± 0.0038 s⁻¹ |
| O=[N+]([O-])c1ccc(S[C@@H]2O[C@H](CO)[C@H](O)[C@H](O)[C@H]2O)cc1 | Adhesin FmlH, lectin domain (Escherichia coli, UniProt Q1RBS0) | binding to desialylated mucin, ELISA competition | UPEC UTI89 | 10 µM, added: desialylated bovine submaxillary mucin |  | inhibition | 17 ± 3.7% |
| Cc1cc(C)c(CNC(=O)c2c(C)n(C(C)C3CCC(NC4(C)COC4)CC3)c3ccccc23)c(=O)[nH]1 (stereo not shown) | Histone-lysine N-methyltransferase EZH2 (EZH2, Homo sapiens, UniProt Q15910) | enzyme activity |  |  |  | residence time | 150 min |
| CC(C)[C@H](NC(=O)[C@@H]1CSSC(C)(C)[C@H](NC(=O)[C@@H](N)CC(=O)O)C(=O)N[C@@H](Cc2ccccc2)C(=O)N[C@@H](Cc2c[nH]c3ccccc23)C(=O)N[C@@H](CCCCN)C(=O)N[C@@H](Cc2ccc(O)cc2)C(=O)N1)C(=O)O | Urotensin-2 receptor (UTS2R, Homo sapiens, UniProt Q9UKP6) | IP1 accumulation, agonist, IP1 HTRF | HEK293T | 1 h, 37 °C |  | span | 100% |

Excerpt of the above:
| SMILES | target | assay | test system | conditions | scale | quantity | result |
| --- | --- | --- | --- | --- | --- | --- | --- |
| CC(C)[C@@H]1NC(=O)[C@H](Cc2ccccc2)NC(=O)CSC[C@@H](C(N)=O)NC(=O)[C@H](CCC(=O)O)NC(=O)[C@H](CO)NC(=O)[C@H](Cc2c[nH]c3cccc(Cl)c23)NC(=O)[C@H](C2CCCCC2)NC(=O)[C@H](C(C)C)NC(=O)[C@H](Cc2ccc(O)cc2)NC(=O)[C@H](CC(=O)O)NC(=O)[C@H](Cc2c[nH]c3ccccc23)NC(=O)[C@H](Cc2ccc(N)nc2)NC(=O)[C@H](Cc2c[nH]c3ccc(Cl)cc23)NC(=O)[C@H](CCC(=O)O)NC1=O | Interleukin-1 receptor-like 2 (IL1RL2, Homo sapiens, UniProt Q9HB29) | reporter gene | HEK-Blue IL-36R | 33.33 µM, 6 h, added: IL-36γ 0.3 ng/mL | relative to: control | remaining activity | 0.4% |
| O=C(c1ccccc1)N1CCN(CC(OCc2ccc3ccccc3c2)c2ccc(Cl)cc2Cl)CC1 (stereo not shown) | Serine/threonine-protein kinase ULK1 (ULK1, Homo sapiens, UniProt O75385) | enzyme activity, inhibitor, ADP detection |  | 0.1 µM |  | activity vs control | 106% |
